Assay results from different studies.
Lines come from different studies, so protocols differ. Several values in a cell are separate wells, animals, samples, runs or records. ± marks the error that the study gave.

SMILES	test	system	setting	half-life
CCC(CC)O[C@@H]1C=C(C(=O)OC(OC(=O)[C@@H](N)C(C)C)C(C)C)C[C@H](NC(=N)N)[C@H]1NC(C)=O (single isomer, unassigned)		acetate buffer	pH 5.5, 37 °C	stable
Cn1cc(C(N)=O)c(NC2C3CC4CC2CC(O)(C4)C3)c2ccnc1-2 (centres unmarked)		Japanese adults, mild hepatic impairment, plasma	oral, 150 mg single dose	10.7 h
CC(C)(C)c1nc(-c2ccc(NC(=O)c3cccs3)cc2Cl)no1	plasma stability	human plasma	5 µM, 37 °C	> 2 h
[2H]C([2H])(c1ccccc1)C([2H])([2H])N1C(=O)CC(=O)N(C([2H])([2H])C([2H])([2H])c2ccccc2)C1=O	metabolic stability	human liver microsomes		1.07 h
CCCCCCCCCCCCCC(=S)NCCCC[C@H](NS(C)(=O)=O)C(=O)N[C@@H](C)C(=O)N[C@@H](CCCNC(=N)N)C(N)=O		human male serum	150 µM, 37 °C	> 2 h
COc1cc(C)c(Cc2ccc(O)cc2)cc1[C@@H]1S[C@H](CO)[C@@H](O)[C@H](O)[C@H]1O		Japanese T2DM patients, plasma	0.5 mg luseogliflozin, day 7, once daily	18.6 ± 2.45 h
Cc1cc(C)cc(OCC(N)c2ccccc2)c1 (centres unmarked)	chemical stability, HPLC		pH 3, 37 °C	> 360 h
O=C(O)c1cccc(CN2CCOCCOCCN(Cc3cccc(C(=O)O)n3)CCOc3ccccc3OCC2)n1	isothiocyanate hydrolysis	NaHCO3 buffer	pH 9.1, room temperature	56 h
CCC(CC)[C@H](NC(C)=O)[C@@H]1[C@H](O)[C@@H](C(=O)OCCOC(=O)[C@@H](N)C(C)C)C[C@H]1NC(=N)N		phosphate buffer	pH 1.2, 37 °C	5.1 ± 0.383 h
CC1(C)C(=CC=C(C=CC2=[N+](CCC[N+](C)(C)C)c3ccc(S(=O)(=O)[O-])cc3C2(C)C)Oc2ccc(CCC(=O)[O-])cc2)N(CCC[N+](C)(C)C)c2ccc(S(=O)(=O)[O-])cc21		pig	iv, dose not given	0.762 h and ~0.75 h
C[N+]1(CC(=O)OC2CCCCCCCCCCC2)CCCCC1		mouse plasma	37 °C	1 h
O=C(CS(=O)(=O)Cc1ccco1)C12CC3CC(CC(C3)C1)C2	metabolic stability	human liver microsomes		> 4 h
O=[N][Fe]1([N]=O)[S](CCO)[Fe]([N]=O)([N]=O)[S]1CCO		PBS	25 µM, pH 7.4, 37 °C, together with: L-cysteine 150 µM	0.4 ± 0.1 h
C#CCOCCOCCOCCOCCn1cc(C(ONC(=O)/C=C/C(C)=C/C2(C)Oc3cc(N(C)C)ccc3C2=O)(c2ccccc2)c2ccccc2)nn1 (centres unmarked)	HPLC	aqueous buffer	pH 5.0	stable
CC[C@H](C)[C@H](NC(=O)CNC(=O)CNC(=O)c1ccc2c(c1)C(=O)OC21c2ccc(O)cc2Oc2cc(O)ccc21)C(=O)N[C@@H](Cc1ccc(O)cc1)C(=O)N(C)CC(=O)N[C@@H](C)C(=O)N1CCC[C@H]1C(=O)N(C)[C@@H](Cc1ccccc1)C(=O)N[C@@H](CCCCN)C(=O)N[C@@H](CCCCN)C(=O)N[C@@H](CCCCN)C(=O)N[C@@H](C)C(N)=O	CE-LIF	Baf/BCR-ABL cell cytosolic lysate	1 µM, pH 7.4, 37 °C	0.0917 h
Nc1nc2c(ncn2COCCOC(=O)[C@@H](N)CS)c(=O)[nH]1		DPBS	pH 5.0, 34 °C, chemical hydrolysis	15.5 ± 1.7 h
Cc1ccccc1OCC(N)c1ccccc1 (centres unmarked)	chemical stability, HPLC		pH 3, 37 °C	> 360 h
CC(C)C[C@H](NC(=O)[C@H](C)NC(=O)[C@H](Cc1c[nH]c2ccccc12)NC(=O)[C@H](Cc1ccc(O)cc1)NC(=O)[C@H](CCC(=O)O)NC(=O)[C@H](C)NC(=O)[C@H](Cc1ccccc1)NC(=O)[C@H](CO)NC(=O)[C@@H](N)[C@@H](C)O)C(=O)N[C@@H](CC(C)C)C(=O)N[C@@H](CO)C(=O)N1CCC[C@H]1C(=O)O	chymotrypsin digestion, substrate, HPLC-MS		room temperature	< 0.1 h
Nc1nc2c(ncn2COCCOC(=O)CCC(=O)OC[C@H](N)C(=O)O)c(=O)[nH]1		DPBS	pH 6.0, 34 °C, chemical hydrolysis	1160 ± 369 h
CCC(CC)[C@H](NC(C)=O)[C@@H]1[C@H](O)[C@@H](C(=O)N[C@H](C(=O)O)[C@@H](C)CC)C[C@H]1NC(=N)N		phosphate buffer	pH 7.4, 37 °C, chemical stability	25.7 ± 0.8 h
[N-]=[N+]=NC(CCCCNC(=O)C1=C[C@H](O)[C@@H](NC(=O)C2=C[C@H](O)[C@@H](NC(=O)C3=C[C@H](O)[C@@H](NC(=O)C4=C[C@H](O)[C@@H](NC(=O)C5=C[C@H](O)[C@@H](NC(=O)C6=C[C@H](O)[C@@H](N)[C@H]([C@H](O)[C@H](O)CO)O6)[C@H]([C@H](O)[C@H](O)CO)O5)[C@H]([C@H](O)[C@H](O)CO)O4)[C@H]([C@H](O)[C@H](O)CO)O3)[C@H]([C@H](O)[C@H](O)CO)O2)[C@H]([C@H](O)[C@H](O)CO)O1)C(N)=O (some centres unmarked)		human serum	100 µM, 37 °C	11.7 h
CC(C)C[C@H](NC(=O)[C@H](CCCNC(=N)N)NC(=O)[C@H](C)NC(=O)[C@H](CC(C)C)NC(=O)[C@@H](N)CCCCN)C(=O)N[C@@H](CC(C)C)C(=O)N[C@H](C(N)=O)[C@@H](C)O		human serum	0.2 mg/mL, 37 °C	~5 h

SMILES	test	system	setting	half-life
Cc1cccc(Cn2ncc3c4cc(F)c(CN(C)C)cc4n(C)c3c2=O)n1		Dutch-belted rabbit, vitreous	intravitreal, 100 µM vitreous concentration	101 h
C[C@H](NC(=O)COC(=O)[C@H](C)NC(=O)CO)C(=O)O		water	pH 2, 65 °C	34.4 h
[2H]C1([2H])C[C@@H](C[C@@H](C#N)NC(=O)[C@@H]2[C@@H]3[C@H](CN2C(=O)[C@@H](NC(=O)C(F)(F)F)C(C)(C)C)C3(C)C)C(=O)N1		mouse liver microsomes	microsomes 0.5 mg/mL	0.258 h
O=C(Cc1cccc(I)c1)N[C@H]1CCOC1=O		TRIS buffer with 0.5% DMSO	50 µM, pH 7, 37 °C	8.5 to 11 h
Cn1cc(C(N)=O)c(NC2C3CC4CC2CC(OS(=O)(=O)O)(C4)C3)c2ccnc1-2 (centres unmarked)		Japanese adults, normal hepatic function, plasma	oral, 150 mg single dose	12.5 h
Cc1ccccc1-c1cc(N2CC[N+](C)([O-])CC2)ncc1N(C)C(=O)C(C)(C)c1cc(C(F)(F)F)cc(C(F)(F)F)c1		healthy volunteers, plasma	oral, dose not given, netupitant-palonosetron fixed-dose combination	55.9 h
CCN(c1nc(N[C@H](CC(N)=O)C(=O)NC)nc(N2CCN(c3ccccc3C#N)CC2)n1)C1CCCCC1		human plasma		2.1 ± 0.3 h
O=C(Nc1ccc(-c2noc(C3CC3)n2)c(Cl)c1)c1cccs1	chemical stability	buffer	5 µM, pH 2.0, 37 °C	0.254 ± 0.0867 h
CC(=O)NC1C(N=C(N)N)C=C(C(=O)OC(C)OC(=O)C(N)C(C)C)OC1C(O)C(O)CO (mixture of isomers)		hydrochlorate buffer	pH 1.2, 37 °C, chemical hydrolysis	> 4 h
[2H]C1([2H])CC[C@@H](C[C@@H](C#N)NC(=O)[C@@H]2[C@@H]3[C@H](CN2C(=O)[C@@H](NC(=O)C(F)(F)F)C(C)(C)C)C3(C)C)C(=O)N1		mouse liver microsomes	microsomes 0.5 mg/mL	0.17 h
CN1CCN(c2cc(-c3ccccc3CO)c(N(C)C(=O)C(C)(C)c3cc(C(F)(F)F)cc(C(F)(F)F)c3)cn2)CC1		healthy volunteers, plasma	oral, dose not given, netupitant-palonosetron fixed-dose combination	67.8 h
CC(=O)N[C@H](CC(=O)O)C(=O)N[C@H](Cc1c[nH]c2ccccc12)C(=O)N[C@H](Cc1ccccc1)C(=O)N[C@H](CCCCN)C(=O)N[C@H](C)C(=O)N[C@H](Cc1ccccc1)C(=O)N[C@H](Cc1ccc(O)cc1)C(=O)N[C@H](CC(=O)O)C(=O)N[C@H](CCCCN)C(=O)N[C@@H](C(=O)N[C@H](C)C(=O)N[C@H](CCC(=O)O)C(=O)N[C@H](CCCCN)C(=O)N[C@H](Cc1ccccc1)C(=O)N[C@H](CCCCN)C(=O)N[C@H](CCC(=O)O)C(=O)N[C@H](C)C(=O)N[C@H](Cc1ccccc1)C(N)=O)C(C)C		statin-treated high-risk CHD patients, plasma	oral, 100 mg daily, day 13, mean, detected subjects	0.81 h
CC[C@H](C)[C@H](NC(=O)CNC(=O)CNC(=O)c1ccc2c(c1)C(=O)OC21c2ccc(O)cc2Oc2cc(O)ccc21)C(=O)N[C@@H](Cc1ccc(O)cc1)C(=O)N[C@@H](C)C(=O)N(C)[C@@H](C)C(=O)N1CCC[C@H]1C(=O)N(C)[C@@H](Cc1ccccc1)C(=O)N[C@@H](CCCCN)C(=O)N[C@@H](CCCCN)C(=O)N[C@@H](CCCCN)C(=O)N[C@@H](C)C(N)=O	CE-LIF	Baf/BCR-ABL cytosolic lysate	1 µM, pH 7.4, 37 °C	0.43 h
O=C(NCCCCc1ccccc1)n1c(=O)oc2cc(-c3ccc(F)cc3)ccc21		mouse plasma	37 °C	> 2 h
C=C(CC)C(=O)c1ccc(OCC(=O)NCCCC[18F])c(Cl)c1Cl			intact radiotracer in vivo	0.767 h
CC(=O)N[C@H]1CSSC[C@@H](C(N)=O)NC(=O)[C@H](C(C)C)NC(=O)[C@H](C)NC(=O)[C@H](Cc2c[nH]cn2)NC(=O)[C@H](CO)NC1=O		rat plasma	37 °C, 0.6% DMSO	12.9 h
CC(C)[C@H](NC(=O)CNC(=O)[C@H](CCC(N)=O)NC(=O)[C@H](C)N)C(=O)O		healthy volunteers, LPS endotoxaemia, plasma	intravenous, 90 mg/kg/h, 2 h infusion, geometric mean, together with: LPS 2 ng/kg	0.17 h
CCC(=O)N[C@@H](C)C(=O)OCC(=O)N[C@@H](C)C(=O)O		water	pH 2, 50 °C	175 h
CC(C)C[C@H](NC(=O)[C@H](CO)NC(=O)[C@H](CO)NC(=O)[C@H](CC(C)C)NC(=O)[C@@H](NC(=O)[C@@H]1CCCN1C(=O)[C@H](Cc1c[nH]c2ccccc12)NC(=O)[C@H](Cc1ccc(O)cc1)NC(=O)[C@@H]1CCCN1C(=O)[C@H](CC(C)C)NC(=O)[C@H](Cc1ccc(O)cc1)NC(=O)[C@@H](N)CCCCN)C(C)C)C(=O)O	ELISA	PC-3 conditioned medium	3000 µM, 37 °C, 10% FBS	~7 h
Nc1nc2c(ncn2COCCOC(=O)[C@@H](N)CO)c(=O)[nH]1		DPBS	pH 5.0, 34 °C, chemical hydrolysis	353 ± 199 h
Cc1nc(-c2ccc(NC(=O)c3cccs3)cc2Cl)no1	plasma stability	human plasma	5 µM, 37 °C	> 2 h
CC[C@@H](NC(=O)[C@H](CC(C)C)NC(=O)NCc1ccccc1)C(=O)C(=O)NCc1cccc(Cl)c1OC	epimerization to active isomer	PBS	100 nM, room temperature	~0.25 h

Excerpt of the above:
SMILES	test	system	setting	half-life
C[N+]1(CC(=O)OC2CCCCCCCCCCC2)CCCCC1		mouse plasma	37 °C	1 h
O=C(CS(=O)(=O)Cc1ccco1)C12CC3CC(CC(C3)C1)C2	metabolic stability	human liver microsomes		> 4 h
O=[N][Fe]1([N]=O)[S](CCO)[Fe]([N]=O)([N]=O)[S]1CCO		PBS	25 µM, pH 7.4, 37 °C, together with: L-cysteine 150 µM	0.4 ± 0.1 h
C#CCOCCOCCOCCOCCn1cc(C(ONC(=O)/C=C/C(C)=C/C2(C)Oc3cc(N(C)C)ccc3C2=O)(c2ccccc2)c2ccccc2)nn1 (centres unmarked)	HPLC	aqueous buffer	pH 5.0	stable
CC[C@H](C)[C@H](NC(=O)CNC(=O)CNC(=O)c1ccc2c(c1)C(=O)OC21c2ccc(O)cc2Oc2cc(O)ccc21)C(=O)N[C@@H](Cc1ccc(O)cc1)C(=O)N(C)CC(=O)N[C@@H](C)C(=O)N1CCC[C@H]1C(=O)N(C)[C@@H](Cc1ccccc1)C(=O)N[C@@H](CCCCN)C(=O)N[C@@H](CCCCN)C(=O)N[C@@H](CCCCN)C(=O)N[C@@H](C)C(N)=O	CE-LIF	Baf/BCR-ABL cell cytosolic lysate	1 µM, pH 7.4, 37 °C	0.0917 h
Nc1nc2c(ncn2COCCOC(=O)[C@@H](N)CS)c(=O)[nH]1		DPBS	pH 5.0, 34 °C, chemical hydrolysis	15.5 ± 1.7 h
Cc1ccccc1OCC(N)c1ccccc1 (centres unmarked)	chemical stability, HPLC		pH 3, 37 °C	> 360 h
